Results gathered from unrelated publications.
A part holds a random share of what one study measured.

Set 1 — method: RNA Bind-n-Seq; molecule type: RNA; matrix: in vitro; tested at: not given; baseline: input RNA pool; reading: higher = stronger binding; quantity: bound/input enrichment
Target: RING finger protein unkempt homolog, zinc fingers 1-6, GST-SBP tag (UNK, Homo sapiens, UniProt Q9C0B0, residues 30-357)
Chain of UniProt Q9C0B0 (30-357, looked up): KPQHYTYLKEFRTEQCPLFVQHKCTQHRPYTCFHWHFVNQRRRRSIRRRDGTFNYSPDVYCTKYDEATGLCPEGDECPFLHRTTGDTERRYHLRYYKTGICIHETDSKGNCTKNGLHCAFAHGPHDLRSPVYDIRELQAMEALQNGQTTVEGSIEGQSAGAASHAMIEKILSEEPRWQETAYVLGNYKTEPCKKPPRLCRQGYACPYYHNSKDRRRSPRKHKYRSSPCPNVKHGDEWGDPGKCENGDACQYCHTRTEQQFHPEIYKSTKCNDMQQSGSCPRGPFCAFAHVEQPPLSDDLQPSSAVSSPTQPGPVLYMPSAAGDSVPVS
Setting: RNA with constant flanks, human and mouse sites, ends assumed
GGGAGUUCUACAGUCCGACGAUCGGGGUCAGCAGCAGGAGAAGCGUGUUGAACACGUGGCUCUCAGACACUCCUUGUUUUUAACGGGAAGCUCUUUGCAUUUGCAUUUCCUCAACAAAGGAGCAAAGCAGAGGAAGCUGAGAGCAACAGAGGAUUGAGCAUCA: 0.148 ratio
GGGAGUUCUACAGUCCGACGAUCGACGAGAAGAUGAGCCCAACUAUUGGAAAGCAGCUGCUUAAGGGGUCAGCUGAUCCUCUGAACAGUGCUUUCCAUCUGACCUAUAACAUGGUUUUGAACUUACUAAGAGUAGAAGAAAUUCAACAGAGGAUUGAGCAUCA: 0.115 ratio
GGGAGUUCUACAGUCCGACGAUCGAAAGAGUUUUGUCAUUCAUUCCUCCAGAUGGAAAUUUCCGACUCAUAUCGUAUCGUGUCAGCUCACAAAAUCUAGUGGCAAUACCAGUGUAUGUGAAACACAGUAUCAGCUUUAAGGAACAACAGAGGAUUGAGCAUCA: 0.229 ratio
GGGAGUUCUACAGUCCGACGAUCGAAGUUGCAAGCAAUGUUCCAAAAGUUGUAGGUUCUGCUGUUGGUAGCGGGUCCAUUACUAGUAACAUCGUGGCUUCCAAUAGUUUGCCUCCAGCCACCAUUGCUCCUCCAAAACCAGCACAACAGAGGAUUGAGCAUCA: 0.356 ratio
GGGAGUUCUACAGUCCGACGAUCACUAAAGACUGUGAUGAGAAUAAAGAAAACAAAACUCCAGAAGGAUCUCAGGGAGAAGUUGAUUGGCUCCAGCAGUAUGAUAUGGAGCGUGAAAGGGAAGAGCAAGAGCUUCAGCAGGCACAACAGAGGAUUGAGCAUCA: 0.343 ratio
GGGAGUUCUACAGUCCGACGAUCUGGAUCUCCCCCGAGACCACCGCCCGGCCCCACCUGGCUGUCAUCGGGCUGGAUGCCUACCUGUGGUACCGCUCACUCUCAUGCCCACAGCAGGGCUGGCUGGGACGGGGGUUCAGGGGACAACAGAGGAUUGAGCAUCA: 0.12 ratio
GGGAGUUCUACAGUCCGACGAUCUGUAGUCAGUGUGGAAGAGCCUUCAGCCAGAAGCAAUACCUCAUUAAACACCAGAAUAUCCAUAGUGGGAAGAAACCUUUUAAGUGUAAUGAGUGUGGUAAGGCUUUUAGCCAGAAAGAACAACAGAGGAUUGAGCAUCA: 0.187 ratio
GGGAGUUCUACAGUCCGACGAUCAUGUGCCUGUACUUAAAAAAAAAAAAAUGGUACACCAGAAAAGGACUGGCAGUCUACUACCAUAGUCAAACUUCACCUUAAUUUCGACAUGACUUUUGGAAGCAGGAAGAAAGCUACAAACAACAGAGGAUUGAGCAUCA: 0.603 ratio
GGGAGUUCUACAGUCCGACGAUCACAACACACCUUCCUGAUGGAGGUGCCCGGCUGUUGGAGAAGUCUGGGGGCUUGGAAAUCAUCUUUGAUGUUUACCAGGCCGACGCUGUGGCCACAUUCCGAAAGAAUAACCCUGGCAAACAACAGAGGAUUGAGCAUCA: 0.116 ratio
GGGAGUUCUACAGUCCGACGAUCUGGCGGAGGCUGGGAUGGAUUCCCUAAGCCAAGCCUGCCCAGCUAAUGAGCUGUUUGACGUUGAACUUGAAAGCUUUCCCCUCCCUCUAAGAUGAUGUAGGUACUUGAGGUUUGGGUUAACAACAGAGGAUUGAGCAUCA: 0.291 ratio
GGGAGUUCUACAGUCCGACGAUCGCUUCAUUCUGCCAUUCACUCACUGCAGCAUAUUCAAGAAUAAAGCAAUAUCGUUUACUACAUUUUUUAUUGAAGGUCAGCCAUGCUUUCUGUAUUAUAUUGCAUAUGAAAUUGUUUACACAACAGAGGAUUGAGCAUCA: 0.59 ratio

Set 2 — method: RNA Bind-n-Seq; molecule type: RNA; matrix: in vitro; tested at: 200 nM; setting: whole 134-nt RNA, ends assumed; together with: 150 mM KCl; baseline: input library; reading: higher = stronger binding; quantity: log2 enrichment
Target: Fragile X messenger ribonucleoprotein 1, C-terminal low-complexity region (Fmr1, Mus musculus, UniProt P35922)
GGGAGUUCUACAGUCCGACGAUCCCUGUGCUACACAUCGUAUGUACCGAAUCGGAAAAAAAGGGAAAAAAAGGGAAAAAAAGGAAAGUAUUAUGUUACGCCGUUCGGAUCUGCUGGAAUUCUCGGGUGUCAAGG: -0.854
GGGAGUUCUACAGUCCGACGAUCACCAUGCAGGUGGGCAUCUUUUGGAAGUGGGGCAAGGGGGGGAUAGGGAGGGGGGUAACACUUUGGGAACAGGUGGUCCCAGGUCGUUUCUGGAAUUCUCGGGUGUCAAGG: 0.909
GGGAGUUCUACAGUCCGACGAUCCAAGUCCUGUGCUACACAUCGUAUGUACCGAAUCAAACCCAAAUUUAAACCCAAAAAAGUAUUAUGUUACGCCGUUCGGAUCUGCACUUCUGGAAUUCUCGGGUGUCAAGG: -0.145
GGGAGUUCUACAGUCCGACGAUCCUGUGCUACACAUCGUAUGUACCGAAUCGGGGAAAAAGGGGAAAAAGGGGUUUUUUUGGGGAAAGUAUUAUGUUACGCCGUUCGGAUCUGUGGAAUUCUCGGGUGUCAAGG: 0.139
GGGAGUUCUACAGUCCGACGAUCCCUCAAGUCCUGUGCUACACAUCGUAUGUACCGAAUCGGUGGAGGUUUUUGGAAAGUAUUAUGUUACGCCGUUCGGAUCUGCACUUCCAGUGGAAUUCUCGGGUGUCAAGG: 0.151
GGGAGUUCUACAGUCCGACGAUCCCUCAAGUCCUGUGCUACACAUCGUAUGUACCGAAUCGGCGGGGCGGGCGGGGAAAGUAUUAUGUUACGCCGUUCGGAUCUGCACUUCCAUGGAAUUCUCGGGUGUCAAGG: 1.06
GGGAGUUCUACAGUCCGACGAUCCUGUGCUACACAUCGUAUGUACCGAAUCGGGAAAAAAAGGGGAAAAAAAGGGAAAAAAAGGGAAAGUAUUAUGUUACGCCGUUCGGAUCUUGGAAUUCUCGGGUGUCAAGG: -0.408
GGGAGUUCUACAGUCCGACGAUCCUGUGCUACACAUCGUAUGUACCGAAUCGGGGAAAAAAAGGGGAAAAAAAGGGGUUUGGGGAAAGUAUUAUGUUACGCCGUUCGGAUCUGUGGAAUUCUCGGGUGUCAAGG: -0.511
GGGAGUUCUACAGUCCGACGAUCAAGUCCUGUGCUACACAUCGUAUGUACCGAAUCGGGAAAGGGUUUUUUUGGGUGGGAAAGUAUUAUGUUACGCCGUUCGGAUCUGCACUUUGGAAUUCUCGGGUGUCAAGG: 0.824
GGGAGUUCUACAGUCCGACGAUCGUCCUGUGCUACACAUCGUAUGUACCGAAUCGGGGUUUGGGGUGGGGAAAAAAAGGGGAAAGUAUUAUGUUACGCCGUUCGGAUCUGCACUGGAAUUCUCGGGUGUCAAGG: 0.516

Set 3 — method: RNA Bind-n-Seq; molecule type: RNA; matrix: in vitro; tested at: 365 nM; baseline: no-protein control; reading: higher = stronger binding; quantity: RBNS enrichment (R)
Target: RNA binding protein fox-1 homolog 2, RRM domain, GST-SBP tag (RBFOX2, Homo sapiens, UniProt O43251-10, residues 100-194)
Setting: natural RNA segment, single round, ends assumed
Target sequence (chain): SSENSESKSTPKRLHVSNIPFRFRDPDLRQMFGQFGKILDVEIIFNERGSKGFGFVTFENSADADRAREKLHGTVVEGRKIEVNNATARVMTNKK
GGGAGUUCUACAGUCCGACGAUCUAGUCUGUGUCCUGUGUGGAACUGUAAGGAUGGAGCUGCCCCUGAUAGGCUCUGUGGAGUUGGCUUGCAUUUGGAUUUCUCUCUUCUAAGGUACAUGUUAAACCUUCCUCUGGAAUUCUCGGGUGCCAA: 1.11
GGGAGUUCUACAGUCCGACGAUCCCUCCCCCGCCCUCGCCCAUCCCAGGUGUGUGCCACACCCAGUAUUUCUUUCAGGUCUCAACUGUGGUGUUUUAAGUGCAGGGAAAAGGAACAAUCACAGCUAUGUGUGAUGGAAUUCUCGGGUGCCAA: 0.411
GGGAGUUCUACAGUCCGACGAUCCACACGCCCCCAGGUCUCCAGGGUAGAAAUCUUUCCAACAGUAGGAACCUAGAGUUAGUCAGGAGUAAAGUCUGUCUAAGGGGAUCGGCAAGCUGCCAGACAACUCUGGCUGGAAUUCUCGGGUGCCAA: 0.425
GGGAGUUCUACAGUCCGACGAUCUUCUGCUGUUUUUGGCAGUCGCUUUUCUGAAUUCUCCCCUCCGGCAGCCUUCCAGAGACUGAUCCUGGAGAUUGAGUUGAUUGUCUUGGCUAGACCUGUCAUUUUAAGCUUGGAAUUCUCGGGUGCCAA: 0.459
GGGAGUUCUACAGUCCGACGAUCCCUCAAUUCCAACACUGAUUUCCCCUUUUGCAUUCUCCCUCCUUCCCUUCCUUGUAGCCUUUUGACUUUCAUUGGAAAUUAGGAUGUAAAUCUGCUCAGGAGACCUGGAGUGGAAUUCUCGGGUGCCAA: 0.33
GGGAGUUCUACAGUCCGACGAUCAUAUUAUGUAUAAAUAAAUAUAUUCAUAAUGAGUAUAUGUAAUGGAUAGCACAACGUUUGGAGACGUGACAAAUGCUCUUACCCUUUGGAGACAAAAGUCCUAUUUUCUGUGGAAUUCUCGGGUGCCAA: 0.344
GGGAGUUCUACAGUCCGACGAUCUGAAUAAAUAAAUGGUAUUUUUUUUAAAUGUCAGCUCUUCCAUAAUUCAGUCUAGAUAGGAGAUUAUUUAACUGAAGAUCUUGGUGAGUGUCAUUUUUUUUUCUUUUUUCUGGAAUUCUCGGGUGCCAA: 0.786
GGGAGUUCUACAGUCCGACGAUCUAUUUUAGGUGCUGGAGUAUGUUUGAAGAGUGUGCUGGGAAAAAGGAAGCAUUUCUUCAUUGAUUUAAAUCAGUAUGAAUAUUAUAUGCCUAAAUAAAAAAUUUGCACAGUGGAAUUCUCGGGUGCCAA: 0.668
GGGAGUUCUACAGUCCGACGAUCAUAAUUUAUACAUAAAAUGUCUGGUUGACUGUACACCUUGUUUUUUUGAAGAAAUUUAUUCGUGAAAGGAAGAGCAGUUGUUAUUUAUUGUGAGGUCUCUUGCUUGUAAAUGGAAUUCUCGGGUGCCAA: 0.582

Set 4 — method: universal PBM; molecule type: double-stranded DNA, one strand shown; matrix: in vitro; tested at: not given; reading: higher = stronger binding; quantity: E-score
Target: Sal-like protein 4, full length isoform B (SALL4, Homo sapiens, UniProt Q9UJQ4-2, residues 1-616)
Setting: 8-mer, flanks averaged, mean of replicates
GTAGACAA: 0.172
AAGGGACC: -0.193
CGGCTCAA: -0.134
CCGTAAGA: -0.167
ACCCAAAC: 0.0245
AACCTAAC: 0.0331
CACGCGCC: -0.246
CTTACGTC: -0.229
TGGTCACA: 0.0283
ATAGTTGA: 0.327
CGTCGCAG: -0.219
CATTTCGC: 0.0213
CGAGCATC: -0.17
GGCATTAC: 0.00939
AGCGATTG: -0.0819
AGTTATCC: -0.0339
GCATGTCC: -0.206
GTTAGAAC: 0.0644
